Experimental data from different studies.
Numbered parts are unrelated; each lists some results of a single study.

Set 1 — method: competition protein-binding microarray; molecule type: double-stranded DNA, one strand shown; sample: in vitro; tested at: 2 µM; with: Pho4 competitor, 0.05 µM; reading: higher = stronger binding
Target: Centromere-binding protein 1, full length, His-tagged (CBF1, Saccharomyces cerevisiae, UniProt P17106, residues 1-351)
UniProt P17106, sequence (whole entry, looked up): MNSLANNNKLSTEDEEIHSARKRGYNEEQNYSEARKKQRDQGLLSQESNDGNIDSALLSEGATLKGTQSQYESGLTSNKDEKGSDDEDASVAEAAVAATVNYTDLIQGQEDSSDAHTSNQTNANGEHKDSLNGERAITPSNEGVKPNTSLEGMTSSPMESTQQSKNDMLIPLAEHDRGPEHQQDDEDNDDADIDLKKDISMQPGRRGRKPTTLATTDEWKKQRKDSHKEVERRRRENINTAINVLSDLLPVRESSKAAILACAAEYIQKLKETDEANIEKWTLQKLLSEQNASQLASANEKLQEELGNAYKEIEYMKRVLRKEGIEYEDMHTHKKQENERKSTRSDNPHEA
Notes: whole 60-bp probe, lowest competitor level
Strand	fluorescence intensity [a.u.]
CTAACGAAGGTTTGGTCTGTGGGTGACAAGCCAAGTGTCTTGATTCGCTTGACGCTGCTG	63.6
CTTTCCCGATCTTGCCGAGTGGGTGTAGCACATTTGGTCTTGATTCGCTTGACGCTGCTG	58.8
ACAACAACATTATACAACGTGGTAACCAAATTTTTCGTCTTGATTCGCTTGACGCTGCTG	162
CCGCCGACACATATACACGTGTATATGTATGCCTATGTCTTGATTCGCTTGACGCTGCTG	1160

Set 2 — method: protein binding microarray; molecule type: double-stranded DNA, one strand shown; sample: in vitro; tested at: not given; baseline: not given; reading: higher = stronger binding
Target: Histone acetyltransferase KAT6A, both winged helices, GST fusion (KAT6A, Homo sapiens, UniProt Q92794, residues 1-181)
Notes: 8-mer, flanks averaged, mean of 2 arrays, mostly near background
Residues (chain): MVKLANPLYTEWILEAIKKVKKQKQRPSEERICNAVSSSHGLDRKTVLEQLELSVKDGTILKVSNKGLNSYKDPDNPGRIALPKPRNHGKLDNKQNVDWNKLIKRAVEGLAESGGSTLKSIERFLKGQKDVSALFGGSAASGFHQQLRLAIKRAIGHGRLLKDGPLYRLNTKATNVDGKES
Strand	E-score
GGCATGAA	0.0626
AGCTCGAG	-0.0139
AACTTTCG	-0.0727
AGGGAAAG	-0.139

Set 3 — method: protein-binding microarray; molecule type: double-stranded DNA, one strand shown; sample: in vitro; tested at: not given; reading: higher = stronger binding
Target: Transcriptional repressor CTCF (CTCF, Homo sapiens, UniProt P49711, residues 1-727, full length assumed)
UniProt P49711, sequence (whole entry, looked up): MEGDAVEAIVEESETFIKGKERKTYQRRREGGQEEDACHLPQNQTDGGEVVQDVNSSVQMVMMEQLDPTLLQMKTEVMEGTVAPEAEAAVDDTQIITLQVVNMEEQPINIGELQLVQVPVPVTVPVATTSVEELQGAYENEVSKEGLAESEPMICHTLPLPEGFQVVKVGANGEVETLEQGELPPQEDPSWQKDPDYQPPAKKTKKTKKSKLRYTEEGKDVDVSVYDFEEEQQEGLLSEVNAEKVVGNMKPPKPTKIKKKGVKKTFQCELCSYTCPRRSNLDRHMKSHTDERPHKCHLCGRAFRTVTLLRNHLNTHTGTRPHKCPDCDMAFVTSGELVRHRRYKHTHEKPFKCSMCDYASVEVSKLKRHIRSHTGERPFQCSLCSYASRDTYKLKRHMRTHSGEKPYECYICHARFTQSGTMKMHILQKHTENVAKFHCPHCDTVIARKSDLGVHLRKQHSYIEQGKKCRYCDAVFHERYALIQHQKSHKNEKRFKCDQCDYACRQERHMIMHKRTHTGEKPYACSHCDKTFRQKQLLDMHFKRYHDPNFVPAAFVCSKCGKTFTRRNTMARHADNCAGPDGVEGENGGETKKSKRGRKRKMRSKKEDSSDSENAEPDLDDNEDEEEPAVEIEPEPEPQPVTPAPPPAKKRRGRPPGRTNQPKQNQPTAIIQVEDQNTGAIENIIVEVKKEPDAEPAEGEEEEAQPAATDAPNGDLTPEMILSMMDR
Notes: k-mer, scored over probes, only values ≥0.25
Strand	E-score
TATTAAAA	0.341
TTAGATAA	0.256
GATTAATA	0.36
AATTTTGT	0.277

Single results of other studies
Molecule	target	assay	test system	conditions	how to read	endpoint	result
PhoQ, residues 284 288 289 292 302 303 SMYGEC	PhoP, residues 12 14 15 18 19 QYCSL (Escherichia coli, UniProt P23836)	Sort-seq, measured: YFP reporter	E. coli	PhoQ-PhoP variant library, with: 10 µM Mg2+	baseline: high Mg2+ state, higher = stronger signaling	fold induction	12.2

A few entries again (set 2):
Strand	E-score
AGGGAAAG	-0.139
AACTTTCG	-0.0727
